Assay results of several laboratories.
A part holds a random share of what one study measured. Positions count from the first letter of the parent shown.

Block 1
Target: RNA binding protein fox-1 homolog 2, RRM domain, GST-SBP tag (RBFOX2, Homo sapiens, UniProt O43251-10, residues 100-194)
Technique: RNA Bind-n-Seq
Form: RNA
Matrix: in vitro
Concentration: 365 nM
Setting: natural RNA segment, single round, ends assumed
Baseline: no-protein control
Reading: higher = stronger binding
All sequences stand within: GGGAGUUCUACAGUCCGACGAUC … UGGAAUUCUCGGGUGCCAA
Target sequence (chain): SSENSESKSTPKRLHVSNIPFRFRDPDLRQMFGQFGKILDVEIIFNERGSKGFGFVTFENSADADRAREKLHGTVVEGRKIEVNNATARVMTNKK
Sequence	RBNS enrichment (R)
ACUCUCCCUAGUUCUCAGUAGAAUAGUUCAAACAAUAUUACUUAUGUUAAUUAGAAGGGGCUUUUGUACUCCAUUAAUGCUGUAUUUAGUUUACUAAUAGCUGCUCAGUU	0.373
AGCUUGAAUGCUUAAAUAUGUGCACCUUUACAAACCUCUCAGUGUAUUCUUGGAGUUCUUGAAAUGUUGUUUUAAUAUUUGUUGCCAGUAAUGUUCUUUCUUCACAGCCG	0.196
GCUGCAACAUUUUGAUUCCUGUUAAUUUUGUUCUUUAAUUAAAUGACUACUUAUUGCAGGAAAUUAACCCAGGCUUUACAUUUUCUUGUGGUUGGGAUGAGUGGUACUUU	0.427
GUGACCUGUUGACGUAACUAAGCCUUACAGCAAGGCAUGUGCCGCACGUGCUCCGUGGUACUUAGAGCCCUGGGGGCCCCGCUCGGACUCCGGGUCUCCCUAGGAUAUGC	0.565
GCCAAAAUGAGCCUCGGUGUCAGAGGAUACAACAAAAACAGCAAUUUUGAUGCCUUUGAAAUGAUGAAGGGAUUCUACCUGUAUUUUUACUCUUAGAACAGAUACAACUU	0.442
AUGACUGUGUUCACUUAAGUUUAGAGAAACACUGGGUUUUGCUAAACUCGGUUAACAAAAGCCACUGGUAACUGAAGGUAUUUAAGCUAGGGUCAUUUGAAAGCUUCAGC	0.275
GAAGAUGGCUCAGGAAGCCACUGUCACGGUUCCUGGAGGCUGGGCCCUCUCAUUGACAUGUACACUACUCCUCGCUGCAGGGCACUGUUCCACCUGGAUCCAGUUGCAAA	0.982
UGUUCACACUGGGGCCAGGAUUUUCAUACUAAAACGUCACUGACAAUGGGGCUACUUUUCUCCUGAAUAGCUCCUCUGGGCUUGUUGCAGUUCUAGUUUUCCCAGUAGUU	0.492
AGUUUUCCUUUGUAUUCACUUCCAUUUUUACUUAAUAACUGACUUGUUGGUGGCUCUUAUUUCUGAAUUCAAAGCUUGUGAAAAAAAAUAAAGAAAUUAAAUUGCCCGUU	1.72
AGGCAGGAGGAGAAGCAUGAAGAGAAAACCUGUUUGAGAAGUUUUGUUUUGUUUUGUUUUGCUUUUUAAUAAUUUUAGCACACAUCUGCUGACUCUCCUUCAACAUCCUC	4.3
GUUGCAUCUGGAAGUUCGAAGAAAUUACUUGAAAUAAAAAUAAAGAUUUCUAUAUAGAUAAAACCUAUAUGUAGAGAAAAAGCAAUUGUCUAGAAAACACAAAACUUCUG	0.537
UUCCCAUGUUGAUGAAAGUACUGCACAGUUUCAAAGGCAUGGUAAAUAAUGUGUUUCUUUCAUAUAUAUUUUUUUCCAAAAGCAGCAAAAAUUCAUAUCCAGUGAAGAUC	2.23

Block 2
Target: Centromere-binding protein 1, full length, His-tagged (CBF1, Saccharomyces cerevisiae, UniProt P17106, residues 1-351)
Sequence of UniProt P17106 (whole entry, looked up): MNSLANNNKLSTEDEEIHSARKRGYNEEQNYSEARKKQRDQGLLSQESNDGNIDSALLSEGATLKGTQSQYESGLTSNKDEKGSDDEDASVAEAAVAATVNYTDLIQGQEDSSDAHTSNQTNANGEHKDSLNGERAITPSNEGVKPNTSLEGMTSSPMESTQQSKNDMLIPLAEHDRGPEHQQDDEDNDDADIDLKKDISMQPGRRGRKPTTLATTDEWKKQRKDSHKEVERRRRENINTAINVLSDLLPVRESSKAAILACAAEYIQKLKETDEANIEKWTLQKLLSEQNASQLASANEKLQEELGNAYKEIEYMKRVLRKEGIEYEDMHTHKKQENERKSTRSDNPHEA
Technique: competition protein-binding microarray
Form: double-stranded DNA, one strand shown
Matrix: in vitro
Concentration: 2 µM
Setting: whole 60-bp probe, lowest competitor level
Added: Pho4 competitor, 0.05 µM
Reading: higher = stronger binding
All sequences stand within: … GTCTTGATTCGCTTGACGCTGCTG
Sequence	fluorescence intensity
CTAACGAAGGTTTTTCACGTGCTATACAAGCCAAGT	1060 a.u.
CTTTCCCGATCTTGTTTAGTGGGTGTAGCACATTTG	79.4 a.u.
CTTTCCCGATCTTGGGAGGTGGGTGTAGCACATTTG	67.1 a.u.
AAATTACTAAGTTGCTGCGTGGGTGACGCCGTATGA	78.3 a.u.
TGAAAGAAGAACCATCACGTGGAACATGCTTTTTAG	1650 a.u.
TTCCTTGGCGCTATTTTCGTGCATCCCGTAATTGCC	83 a.u.
GGCAAGGGGGGGGATGACACGGGCGGCTCTGGTTGG	161 a.u.
TCCGCACACAGAGGTTATGTGACGGTGGTAACCGTA	56.6 a.u.
TTCTTCTCCCAATCGCACGGCGAAGTCGCTCGACAA	59.4 a.u.

Block 3
Target: ABI1, truncated, D143A, DHFR fusion (Arabidopsis thaliana)
Technique: DHFR PCA, deep sequencing
Matrix: yeast
Setting: methotrexate growth selection, single substitutions
Added: (+)-ABA 710 µM
Baseline: wild-type fitted maximum
Reading: higher = stronger binding
Parent: PYL1, truncated, DHFR fusion (Arabidopsis thaliana); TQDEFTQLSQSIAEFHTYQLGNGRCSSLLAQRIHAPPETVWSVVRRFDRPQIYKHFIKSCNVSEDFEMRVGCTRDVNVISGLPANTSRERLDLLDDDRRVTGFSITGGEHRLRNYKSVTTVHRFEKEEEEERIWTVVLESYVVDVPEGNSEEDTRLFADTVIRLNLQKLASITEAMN
Substitution	relative binding score [%]
R111N	93.7
L29C	97.3
F5Q	106
T6Y	94.1
H122I	59.7
A13C	101
T120N	36
K54C	-1.04

Other studies, line by line
Substance	target	assay	system	conditions	scale	quantity	value
PhoQ, residues 284 288 289 292 302 303 AEGLLW	PhoP, residues 12 14 15 18 19 NYFTV (Escherichia coli, UniProt P23836)	Sort-seq, measured: YFP reporter	E. coli	PhoQ-PhoP variant library, added: 10 µM Mg2+	baseline: high Mg2+ state, higher = stronger signaling	fold induction	1.6

For quick reference, copied from above (block 2):
Sequence	fluorescence intensity
TTCTTCTCCCAATCGCACGGCGAAGTCGCTCGACAA	59.4 a.u.
GGCAAGGGGGGGGATGACACGGGCGGCTCTGGTTGG	161 a.u.
TGAAAGAAGAACCATCACGTGGAACATGCTTTTTAG	1650 a.u.
